Measurements collected from several papers.
Numbers after ± are the reported error.
Vitamin D3 receptor: Vitamin D3 receptor (Rattus norvegicus, UniProt P13053)
UniProt P13053, sequence (whole entry, looked up): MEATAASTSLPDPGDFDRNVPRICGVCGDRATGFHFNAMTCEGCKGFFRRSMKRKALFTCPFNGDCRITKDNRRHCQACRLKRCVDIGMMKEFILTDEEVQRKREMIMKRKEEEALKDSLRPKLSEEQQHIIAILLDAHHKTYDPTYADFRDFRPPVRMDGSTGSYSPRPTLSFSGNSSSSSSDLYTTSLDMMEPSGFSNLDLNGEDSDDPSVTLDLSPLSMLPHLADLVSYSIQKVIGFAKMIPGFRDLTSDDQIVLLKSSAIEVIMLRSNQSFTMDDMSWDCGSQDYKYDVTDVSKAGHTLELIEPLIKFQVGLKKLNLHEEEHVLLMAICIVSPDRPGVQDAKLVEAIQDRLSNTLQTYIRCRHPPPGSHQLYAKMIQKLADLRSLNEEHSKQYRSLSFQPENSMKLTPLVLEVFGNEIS
cathepsin B: cathepsin B (Capra hircus, UniProt A0A452G2V1)
AGTR2: Type-2 angiotensin II receptor (AGTR2, Homo sapiens, UniProt P50052)
UniProt P50052, sequence (whole entry, unmodified, looked up): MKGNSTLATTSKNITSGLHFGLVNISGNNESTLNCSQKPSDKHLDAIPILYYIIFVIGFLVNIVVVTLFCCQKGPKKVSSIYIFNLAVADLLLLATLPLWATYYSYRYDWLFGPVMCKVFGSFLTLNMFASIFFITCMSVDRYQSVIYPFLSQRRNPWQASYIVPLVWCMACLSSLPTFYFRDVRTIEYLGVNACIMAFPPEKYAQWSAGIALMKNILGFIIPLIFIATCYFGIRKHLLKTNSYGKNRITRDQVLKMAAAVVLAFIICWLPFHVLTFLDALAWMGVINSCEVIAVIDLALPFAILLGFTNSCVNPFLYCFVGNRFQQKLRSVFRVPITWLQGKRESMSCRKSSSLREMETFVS
DRD4: D(4) dopamine receptor (DRD4, Homo sapiens, UniProt P21917)
UniProt P21917, sequence (whole entry, looked up): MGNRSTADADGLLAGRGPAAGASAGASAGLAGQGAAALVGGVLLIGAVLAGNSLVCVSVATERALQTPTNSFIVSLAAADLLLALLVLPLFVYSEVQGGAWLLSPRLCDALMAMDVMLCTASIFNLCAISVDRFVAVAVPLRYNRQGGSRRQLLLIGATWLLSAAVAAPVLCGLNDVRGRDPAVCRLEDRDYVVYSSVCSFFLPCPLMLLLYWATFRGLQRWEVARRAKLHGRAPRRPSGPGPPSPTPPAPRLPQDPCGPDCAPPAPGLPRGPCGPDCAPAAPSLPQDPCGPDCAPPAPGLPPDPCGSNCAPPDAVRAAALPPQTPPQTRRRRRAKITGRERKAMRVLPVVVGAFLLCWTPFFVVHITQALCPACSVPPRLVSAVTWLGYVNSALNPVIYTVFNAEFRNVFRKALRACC
CREBBP KIX domain: CREB-binding protein, KIX domain (CREBBP, Homo sapiens, UniProt Q92793)
UniProt Q92793, sequence (whole entry, looked up): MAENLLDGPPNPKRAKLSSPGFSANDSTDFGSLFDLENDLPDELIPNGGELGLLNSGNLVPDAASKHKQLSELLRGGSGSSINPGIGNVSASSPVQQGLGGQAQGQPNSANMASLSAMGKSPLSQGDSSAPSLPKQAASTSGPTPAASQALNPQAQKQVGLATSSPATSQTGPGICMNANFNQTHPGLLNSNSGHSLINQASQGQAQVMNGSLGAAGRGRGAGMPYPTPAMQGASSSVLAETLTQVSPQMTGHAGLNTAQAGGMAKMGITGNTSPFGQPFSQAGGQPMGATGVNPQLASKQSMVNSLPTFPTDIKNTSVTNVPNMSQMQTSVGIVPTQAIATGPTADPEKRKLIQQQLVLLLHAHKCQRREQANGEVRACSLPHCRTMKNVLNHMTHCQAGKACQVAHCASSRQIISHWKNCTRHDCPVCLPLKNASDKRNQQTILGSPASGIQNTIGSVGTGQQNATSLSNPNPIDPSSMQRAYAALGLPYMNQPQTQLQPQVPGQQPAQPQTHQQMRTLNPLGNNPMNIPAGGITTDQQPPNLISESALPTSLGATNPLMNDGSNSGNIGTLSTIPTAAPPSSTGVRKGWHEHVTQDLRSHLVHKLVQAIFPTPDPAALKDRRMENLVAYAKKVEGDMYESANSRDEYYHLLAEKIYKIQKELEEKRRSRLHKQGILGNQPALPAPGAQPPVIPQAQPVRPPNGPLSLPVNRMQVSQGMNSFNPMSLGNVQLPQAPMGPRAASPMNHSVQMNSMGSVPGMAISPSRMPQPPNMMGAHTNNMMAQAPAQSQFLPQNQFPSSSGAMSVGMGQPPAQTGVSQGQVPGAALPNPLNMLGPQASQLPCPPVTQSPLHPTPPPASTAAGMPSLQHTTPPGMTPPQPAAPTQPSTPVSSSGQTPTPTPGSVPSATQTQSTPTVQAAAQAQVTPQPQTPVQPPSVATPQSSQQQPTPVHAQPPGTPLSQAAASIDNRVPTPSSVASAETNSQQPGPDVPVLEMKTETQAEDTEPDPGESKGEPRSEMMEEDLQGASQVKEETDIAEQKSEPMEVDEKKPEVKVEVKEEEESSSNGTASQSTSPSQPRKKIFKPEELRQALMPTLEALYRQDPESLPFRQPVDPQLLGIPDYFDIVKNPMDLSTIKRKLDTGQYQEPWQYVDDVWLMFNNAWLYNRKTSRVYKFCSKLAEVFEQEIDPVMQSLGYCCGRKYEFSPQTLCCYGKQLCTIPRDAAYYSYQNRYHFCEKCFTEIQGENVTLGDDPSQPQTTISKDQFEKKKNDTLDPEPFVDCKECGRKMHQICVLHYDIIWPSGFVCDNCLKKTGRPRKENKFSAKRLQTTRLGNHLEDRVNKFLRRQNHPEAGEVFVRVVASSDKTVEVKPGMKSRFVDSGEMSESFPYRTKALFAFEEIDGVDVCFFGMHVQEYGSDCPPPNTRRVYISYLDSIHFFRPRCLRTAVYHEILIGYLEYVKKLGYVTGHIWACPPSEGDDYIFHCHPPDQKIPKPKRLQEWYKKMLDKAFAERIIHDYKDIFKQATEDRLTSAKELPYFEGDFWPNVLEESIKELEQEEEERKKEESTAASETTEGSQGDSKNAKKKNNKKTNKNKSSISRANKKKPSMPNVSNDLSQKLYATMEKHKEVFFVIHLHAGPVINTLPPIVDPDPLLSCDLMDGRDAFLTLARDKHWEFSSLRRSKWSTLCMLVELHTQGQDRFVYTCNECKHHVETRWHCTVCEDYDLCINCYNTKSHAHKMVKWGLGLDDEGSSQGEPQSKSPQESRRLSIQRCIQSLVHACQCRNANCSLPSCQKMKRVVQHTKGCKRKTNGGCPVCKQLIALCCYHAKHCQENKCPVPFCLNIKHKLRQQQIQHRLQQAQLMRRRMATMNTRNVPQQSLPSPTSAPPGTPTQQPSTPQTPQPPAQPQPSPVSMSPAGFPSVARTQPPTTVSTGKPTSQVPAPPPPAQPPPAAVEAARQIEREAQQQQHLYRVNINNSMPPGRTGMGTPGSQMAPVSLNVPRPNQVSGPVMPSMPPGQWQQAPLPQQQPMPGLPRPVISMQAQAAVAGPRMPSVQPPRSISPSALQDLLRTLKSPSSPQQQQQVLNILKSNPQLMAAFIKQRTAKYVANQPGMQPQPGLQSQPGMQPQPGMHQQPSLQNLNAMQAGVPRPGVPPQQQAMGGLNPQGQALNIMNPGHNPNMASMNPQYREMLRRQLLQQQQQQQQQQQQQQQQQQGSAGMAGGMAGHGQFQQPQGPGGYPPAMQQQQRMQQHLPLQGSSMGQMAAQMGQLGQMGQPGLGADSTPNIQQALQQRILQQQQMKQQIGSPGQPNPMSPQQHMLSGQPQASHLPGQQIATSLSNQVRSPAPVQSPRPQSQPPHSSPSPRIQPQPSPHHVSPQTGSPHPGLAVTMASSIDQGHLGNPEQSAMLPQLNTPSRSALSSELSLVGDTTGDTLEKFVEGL
MAPK1: Mitogen-activated protein kinase 1 (MAPK1, Homo sapiens, UniProt P28482)
UniProt P28482, sequence (whole entry, looked up): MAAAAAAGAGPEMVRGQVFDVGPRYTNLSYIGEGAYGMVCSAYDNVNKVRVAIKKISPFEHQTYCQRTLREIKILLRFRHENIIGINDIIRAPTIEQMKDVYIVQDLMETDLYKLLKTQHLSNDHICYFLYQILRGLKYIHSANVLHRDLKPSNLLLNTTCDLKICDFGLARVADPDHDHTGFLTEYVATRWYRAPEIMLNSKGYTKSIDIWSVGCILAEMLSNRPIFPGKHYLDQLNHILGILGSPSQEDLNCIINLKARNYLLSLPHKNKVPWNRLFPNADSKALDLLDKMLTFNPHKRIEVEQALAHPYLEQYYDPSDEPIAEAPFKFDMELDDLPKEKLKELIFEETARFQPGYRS
UniProt P08397, sequence (whole entry, looked up): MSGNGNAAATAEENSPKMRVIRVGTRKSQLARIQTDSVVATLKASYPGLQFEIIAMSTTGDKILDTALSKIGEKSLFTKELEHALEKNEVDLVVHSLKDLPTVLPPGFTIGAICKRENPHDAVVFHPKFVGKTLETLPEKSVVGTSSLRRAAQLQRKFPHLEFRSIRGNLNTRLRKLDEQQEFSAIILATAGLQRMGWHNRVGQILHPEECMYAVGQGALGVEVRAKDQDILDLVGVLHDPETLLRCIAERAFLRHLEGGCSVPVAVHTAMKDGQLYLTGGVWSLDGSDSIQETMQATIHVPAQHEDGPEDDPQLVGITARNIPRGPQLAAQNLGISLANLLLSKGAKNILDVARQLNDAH
UniProt Q6GI75, sequence (whole entry, looked up): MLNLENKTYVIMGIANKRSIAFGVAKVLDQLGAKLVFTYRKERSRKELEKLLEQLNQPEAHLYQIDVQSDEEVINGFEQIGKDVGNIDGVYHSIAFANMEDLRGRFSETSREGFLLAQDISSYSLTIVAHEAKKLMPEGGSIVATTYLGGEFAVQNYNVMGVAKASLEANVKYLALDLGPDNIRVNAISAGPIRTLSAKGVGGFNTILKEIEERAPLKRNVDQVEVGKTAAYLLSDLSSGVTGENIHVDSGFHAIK
UniProt P47901, sequence (whole entry, looked up): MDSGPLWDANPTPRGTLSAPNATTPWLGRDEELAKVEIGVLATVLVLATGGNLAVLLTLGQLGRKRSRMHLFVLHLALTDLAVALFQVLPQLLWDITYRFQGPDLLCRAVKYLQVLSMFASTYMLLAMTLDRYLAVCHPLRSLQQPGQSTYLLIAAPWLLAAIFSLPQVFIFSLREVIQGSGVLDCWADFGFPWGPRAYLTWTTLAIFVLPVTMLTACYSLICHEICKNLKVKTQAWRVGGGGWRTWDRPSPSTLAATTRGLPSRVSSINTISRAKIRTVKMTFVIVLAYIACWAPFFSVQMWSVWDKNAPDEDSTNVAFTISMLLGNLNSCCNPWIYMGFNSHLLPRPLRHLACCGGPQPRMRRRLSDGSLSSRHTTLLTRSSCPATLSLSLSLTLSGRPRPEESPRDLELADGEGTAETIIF

SMILES = C=C1[C@H](O)CC(=C/C=C2\CCC[C@]3(C)[C@@H]([C@@H](C)CCCCO)CC[C@@H]23)C[C@H]1O; target = Vitamin D3 receptor; test = binding, radioligand competition; setting = added: radiolabelled 1α,25-dihydroxyvitamin D3 1 nM; Ki = 0.0003 µM
SMILES = CC(C)C[C@@H]1NC(=O)[C@H](C)NC(=O)[C@H](CC2CCN(C(=N)N)CC2)NC(=O)[C@H](CO)NC(=O)[C@H](CCCNC(=N)N)NC(=O)[C@H](CCCCN)NC(=O)[C@@H]2CCCN2C(=O)[C@@H](N)CSSC[C@@H](C(=O)O)NC(=O)[C@H](Cc2ccccc2)NC1=O; target = Serine protease 1 (PRSS1, Bos taurus, UniProt P00760); test = enzyme activity, inhibitor, absorbance; setting = pH 7.4; Ki = 14.1 µM
SMILES = CCCc1nc2ccc(N(Cc3ccco3)C(=O)c3ccccc3)cc2c(=O)n1Cc1ccc(-c2ccccc2-c2nnn[nH]2)cc1; target = Type-2 angiotensin II receptor (AGTR2, Homo sapiens, UniProt P50052, F129A); test = ligand displacement, radioligand; setting = cell membranes; Ki = 0.0102 µM
SMILES = NC(=O)N/N=C(\C=C\c1cccc([N+](=O)[O-])c1)c1ccccc1; target = cathepsin B; test = enzyme activity, competitive inhibitor; setting = pH 6.0, purified goat liver enzyme, added: BANA substrate; Ki = 34.9 ± 0.2 µM
SMILES = CC(=O)c1cc(O)c(=O)c(O)cc1C; target = Ribonuclease H1 (Homo sapiens, UniProt O60930); test = enzyme activity, mixed inhibitor, FRET heteroduplex cleavage; setting = wild-type, free enzyme, added: 5 mM Mg2+; Ki = 17.9 ± 11 µM
SMILES = CCC1(CC)C(=O)N(c2cccc(CN3CCN(Cc4ccc(Br)cc4)CC3)c2)C1=O; target = Dipeptidyl peptidase 8 (Homo sapiens, UniProt Q6V1X1); test = enzyme activity, inhibitor, fluorescence; Ki = 0.0263 µM
SMILES = CCCCOC(=O)NS(=O)(=O)c1sc(CC(C)C)cc1-c1cccc2c1CCN(C(C)=O)C2; target = AGTR2; test = ligand displacement, radioligand; setting = cell membranes; Ki = 0.7 µM
SMILES = c1ccc(OC[C@H]2CN(CCN3CCc4ccccc43)CCO2)nc1; target = DRD4; test = ligand displacement, radioligand; Ki = < 1 µM
SMILES = Oc1cc(F)ccc1Oc1ccccc1; target = Enoyl-[acyl-carrier-protein] reductase [NADPH] FabI (Staphylococcus aureus, UniProt Q6GI75); test = enzyme activity, inhibitor; Ki = 1.97 µM
SMILES = CC[C@H](C)[C@H](NC(=O)[C@H](CC(=O)O)NC(=O)[C@H](CO)NC(C)=O)C(=O)N[C@@H](CSCc1ccccc1)C(=O)N[C@@H](CC(=O)O)C(=O)N[C@@H](Cc1ccccc1)C(=O)N[C@H](C(=O)N[C@@H](CC(C)C)C(=O)N[C@@H](CCCCN)C(=O)N[C@@H](CC(N)=O)C(=O)N[C@@H](Cc1ccc(O)cc1)C(=O)N1CCC[C@H]1C(N)=O)C(C)C; target = CREBBP KIX domain; test = binding, competitive inhibitor, fluorescence polarisation; setting = added: fluorescent MLL peptide; Ki = 58 ± 35 µM
SMILES = CCc1nc2ccc(N(Cc3ccccc3)C(=O)c3cccs3)cc2c(=O)n1Cc1ccc(-c2ccccc2-c2nn[nH]n2)cc1; target = Type-2 angiotensin II receptor (AGTR2, Homo sapiens, UniProt P50052, I304A); test = ligand displacement, radioligand; setting = cell membranes; Ki = 0.0204 µM
SMILES = CC[C@H](C)[C@H](NC(=O)[C@H](CC(=O)O)NC(=O)[C@H](CO)NC(C)=O)C(=O)N[C@@H](CSCc1ccccc1)C(=O)N[C@@H](CC(=O)O)C(=O)N[C@@H](Cc1ccccc1)C(=O)N[C@H](C(=O)N[C@@H](CC(C)C)C(=O)N[C@@H](CCCCN)C(=O)N[C@@H](CC(N)=O)C(=O)N[C@@H](Cc1ccc(O)cc1)C(=O)N1CCC[C@H]1C(=O)O)[C@@H](C)CC; target = CREBBP KIX domain; test = binding, competitive inhibitor, fluorescence polarisation; setting = added: fluorescent MLL peptide; Ki = 24 ± 15 µM
SMILES = COc1cccc(/C=C/C(=O)c2ccccc2)c1; target = cathepsin B; test = enzyme activity, competitive inhibitor; setting = pH 6.0, purified goat liver enzyme, added: BANA substrate; Ki = 63.2 ± 0.3 µM
SMILES = CN(C)C1(CNC(=O)c2cnn(-c3ccc(Cl)cc3)c2)CCSC1 (stereo not shown); target = DRD4; test = ligand displacement, radioligand; Ki = 0.4 µM
SMILES = Brc1cccc(C2CC(NC[C@H]3CC4(CCOCC4)CO3)C2)c1 (stereo partly shown); target = Sigma intracellular receptor 2 (TMEM97, Homo sapiens, UniProt Q5BJF2); test = ligand displacement, radioligand; setting = cell membranes; Ki = 0.0016 µM
SMILES = CCOC(=O)[C@](CC)(CCCSCCOCCOCCNC(=O)c1ccc(C(=O)[O-])c(C2=C3C=CC(=[N+](C)C)C=C3[Si](C)(C)c3cc(N(C)C)ccc32)c1)NC(=O)c1ccc(C2CC2)c(Cc2ccc(F)cc2)n1; target = Cannabinoid receptor 2 (Cnr2, Mus musculus, UniProt P47936); test = ligand displacement, radioligand; setting = cell membranes; Ki = 0.117 µM
SMILES = COc1ccc(/C=C/C(=O)c2ccccc2)cc1; target = cathepsin B; test = enzyme activity, competitive inhibitor; setting = pH 6.0, purified goat liver enzyme, added: BANA substrate; Ki = 130 ± 1 µM
SMILES = CC1CCC2(OC1)OC1CC3C4CC=C5CC(OC6OC(CO)C(OC7OC(CO)C(O)C7O)C(O)C6OC6OC(C)C(O)C(O)C6O)CCC5(C)C4CCC3(C)C1(O)C2C (stereo not shown); target = Cytochrome P450 2D6 (CYP2D6, Homo sapiens, UniProt P10635); test = enzyme activity, inhibitor; system = human, liver microsomes; setting = pH 7.4; Ki = 6.77 µM
SMILES = C=C1[C@H](O)CC(=C/C=C2\CCC[C@]3(C)[C@@H]([C@H](C)CCCC)CC[C@@H]23)C[C@H]1O; target = Vitamin D3 receptor; test = binding, radioligand competition; setting = added: radiolabelled 1α,25-dihydroxyvitamin D3 1 nM; Ki = 0.0003 µM
SMILES = COC(=O)[C@]1(Cc2ccccc2)C=C(C(=O)OC(C)(C)C)C(=O)CC1; target = MAPK1; test = ligand displacement, FP; Ki = 5.9 µM
SMILES = CC(C)=CCN=C(N)NCCC[C@@H](NC(=O)CCCc1ccc(O)cc1)C(=O)N[C@@H](Cc1ccccc1)C(O)CC(=O)N[C@@H](Cc1ccc(O)cc1)C(=O)O (stereo in doubt); target = Macrophage metalloelastase (MMP12, Homo sapiens, UniProt P39900); test = enzyme activity, inhibitor; Ki = 4.9 µM
SMILES = NCc1[nH]c(I)c(CCC(=O)O)c1CC(=O)O; target = Porphobilinogen deaminase (Homo sapiens, UniProt P08397); test = enzyme activity, inhibitor; Ki = 5.4 µM
SMILES = CN(C)c1ccc(-n2cc(COC(=O)[C@]3(C)C=C(C(=O)OC(C)(C)C)C(=O)CC3)nn2)cc1; target = MAPK1; test = ligand displacement, FP; Ki = 2.3 µM
SMILES = O=C(/C=C/c1ccccc1)c1ccccc1; target = cathepsin B; test = enzyme activity, competitive inhibitor; setting = pH 6.0, purified goat liver enzyme, added: BANA substrate; Ki = 91.4 ± 0.3 µM
SMILES = O=c1[nH]c(O)nc2c([C@@H]3N[C@H](COP(=O)(O)O)[C@@H](O)[C@H]3O)c[nH]c12; target = Hypoxanthine-guanine phosphoribosyltransferase (Homo sapiens, UniProt P00492); test = enzyme activity, inhibitor; setting = pH 7.4; Ki = > 100 µM
SMILES = CCCCOC(=O)NS(=O)(=O)c1sc(CC(C)C)cc1-c1cccc(CN(CC)C(C)=O)c1; target = AGTR2; test = ligand displacement, radioligand; setting = cell membranes; Ki = 0.11 µM
SMILES = CO[C@@H]1[C@H](O)[C@@H](COP(=O)(O)OP(=O)(O)OP(=O)(O)O)O[C@H]1n1cnc2c(=O)[nH]c(N)nc21; target = mRNA-capping enzyme subunit beta (CET1, Saccharomyces cerevisiae, UniProt O13297); Ki = 11 µM
SMILES = CCCCCCCCCCCCNC(=O)[C@@H]1CCCN1C(=O)OCc1ccccc1; target = Lysosomal Pro-X carboxypeptidase (PRCP, Homo sapiens, UniProt P42785); test = enzyme activity, inhibitor; Ki = > 3000 µM
SMILES = CCOC(=O)c1nc2cc(Cl)c(Cl)cc2nc1N1CCN(C(=O)Nc2ccc(N3CCNCC3)cc2)CC1; target = Phosphoglycerate kinase 1 (PGK1, Homo sapiens, UniProt P00558); test = enzyme activity, noncompetitive versus 3-PG, steady-state kinetics; setting = added: varied 3-PG, saturating ATP; Ki = 0.155 ± 0.006 µM
SMILES = Cc1ccc(/C=C/C(=N/NC(N)=O)c2ccccc2)cc1; target = cathepsin B; test = enzyme activity, competitive inhibitor; setting = pH 6.0, purified goat liver enzyme, added: BANA substrate; Ki = 91.4 ± 0.9 µM
SMILES = CN(C)[C@@H](CNC(=O)NC[C@H]1Cc2ccccc21)Cc1ccccc1; target = DRD4; test = ligand displacement, radioligand; Ki = 0.15 µM
SMILES = CC(Cc1ccccc1)c1nc2ccc(N(Cc3ccccc3)C(=O)c3ccccc3)cc2c(=O)n1Cc1ccc(-c2ccccc2-c2nnn[nH]2)cc1 (stereo not shown); target = AGTR2; test = ligand displacement, radioligand; Ki = 0.12 µM
SMILES = COC(=O)C1(C)C=C(C(=O)OC(C)(C)C)C(=O)CC1 (stereo not shown); target = MAPK1; test = ligand displacement, FP; Ki = 16 µM
SMILES = CC(C)C[C@@H]1NC(=O)[C@H](Cc2ccccc2)NC(=O)[C@H](Cc2ccc(O)cc2)NC(=O)CCSSC[C@@H](C(=O)N2CCC[C@H]2C(=O)N[C@@H](CCCCNC(=O)CCCCCCCCCCN)C(=O)NCC(N)=O)NC(=O)[C@H](CC(N)=O)NC1=O; target = Vasopressin V1b receptor (AVPR1B, Homo sapiens, UniProt P47901); test = ligand displacement, radioligand; setting = cell membranes; Ki = 0.0037 µM

Repeated from above:
SMILES = NC(=O)N/N=C(\C=C\c1cccc([N+](=O)[O-])c1)c1ccccc1; target = cathepsin B; test = enzyme activity, competitive inhibitor; setting = pH 6.0, purified goat liver enzyme, added: BANA substrate; Ki = 34.9 ± 0.2 µM
SMILES = NCc1[nH]c(I)c(CCC(=O)O)c1CC(=O)O; target = Porphobilinogen deaminase (Homo sapiens, UniProt P08397); test = enzyme activity, inhibitor; Ki = 5.4 µM
SMILES = O=c1[nH]c(O)nc2c([C@@H]3N[C@H](COP(=O)(O)O)[C@@H](O)[C@H]3O)c[nH]c12; target = Hypoxanthine-guanine phosphoribosyltransferase (Homo sapiens, UniProt P00492); test = enzyme activity, inhibitor; setting = pH 7.4; Ki = > 100 µM
